Measurements gathered from unrelated publications.
Numbered parts are unrelated; each lists some results of a single study.

Study 1
Target: Beta-1 adrenergic receptor (ADRB1, Homo sapiens, UniProt P08588)
Chain of UniProt P08588 (whole entry, looked up): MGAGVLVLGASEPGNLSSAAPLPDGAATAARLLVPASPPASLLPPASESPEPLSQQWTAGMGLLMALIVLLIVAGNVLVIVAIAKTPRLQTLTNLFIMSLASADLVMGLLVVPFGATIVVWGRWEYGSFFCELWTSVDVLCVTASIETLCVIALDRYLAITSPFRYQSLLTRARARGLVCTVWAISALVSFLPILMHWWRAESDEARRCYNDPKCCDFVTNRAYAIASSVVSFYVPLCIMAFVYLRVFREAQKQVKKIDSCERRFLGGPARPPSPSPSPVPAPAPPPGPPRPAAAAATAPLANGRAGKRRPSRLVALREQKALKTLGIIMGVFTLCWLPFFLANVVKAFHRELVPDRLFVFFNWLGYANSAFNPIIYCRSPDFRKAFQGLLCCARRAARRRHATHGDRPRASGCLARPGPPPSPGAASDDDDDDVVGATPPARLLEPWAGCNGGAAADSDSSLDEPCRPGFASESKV
Action: antagonist
Structure (SMILES) | IC50 [µM]
CN(c1ccccc1)c1cc(=O)c2ccnc(-c3ccncc3)c2o1 | ≥ 100
Cc1[nH]c(/C=C2/C(=O)Nc3ccc(F)cc32)c(C)c1C(=O)NC[C@H](O)CN1CCOCC1 | ≥ 100
Cn1cc(-c2cnc(NC(=O)Cc3ccc(F)cc3)c3c2CCO3)cn1 | ≥ 100
CCn1ncc(NC(=O)Cn2ncc3cc(-c4ccc(N(C)C)cc4)ccc32)n1 | ≥ 100
O=C1NCC2(CCN(Cc3ccsc3)CC2)Oc2ccccc21 | ≥ 100
COc1ccccc1N1CCN(c2ccc3ccccc3n2)CC1 | ≥ 100
NCC(Cc1ccc(O)cc1)c1ccc(O)cc1 (stereo not shown) | ≥ 100
Cn1cc(-c2cnc(Nc3ccc(F)cc3)c3c2CCO3)cn1 | ≥ 100
COc1cc(CNCCCO)ccc1OCC(O)CN1CCSCC1 (stereo not shown) | ≥ 100
Cc1noc2c(-c3cnn(C)c3)cc(-c3cccc(C(F)(F)F)c3)nc12 | ≥ 100
CN(Cc1ccccc1)Cc1ccccc1OCC(O)CN1CCCCC1 (stereo not shown) | ≥ 100
CN(Cc1cccc(OCC(O)CN2CCOCC2)c1)Cc1ccc2nonc2c1 (stereo not shown) | ≥ 100
Cn1cc(C(=O)N2CCn3nc(C(O)CO)cc3C2)c(=O)[nH]c1=O (stereo not shown) | ≥ 100
N#Cc1cc(NC(=O)Nc2nnc(-c3ccncc3)s2)ccc1-c1cn[nH]c1 | ≥ 100
O=C1OC2(c3ccc(O)cc3Oc3cc(O)ccc32)c2cccc(N=C=S)c21 | 12.6
Oc1ccc(-c2cc(-c3cccc(N4CCOCC4)c3)cn3cncc23)cn1 | ≥ 100
O=C1COc2ccc(-c3ccsc3)nc2CN1 | ≥ 100
CCN(CC)C(=O)Nc1ccc(OCC(O)CNC(C)(C)C)c(C(C)=O)c1 (stereo not shown) | ≥ 100
Cc1noc2c(-c3cn[nH]c3)cc(-c3cccc(C(F)(F)F)c3)nc12 | 39.8
CC(C)c1ccccc1Nc1nnc(-c2cc(-c3cccnc3)nc3ccccc23)s1 | ≥ 100
Cc1noc2c(NC3CCC(O)CC3)cc(-c3ccc(F)cc3)nc12 (stereo not shown) | ≥ 100
CC(CNc1cc(-c2ccccc2)c2ccccc2n1)N1CCOCC1 (stereo not shown) | ≥ 100

Study 2
Target: Synaptic vesicular amine transporter (SLC18A2, Homo sapiens, UniProt Q05940)
Chain of UniProt Q05940 (whole entry, looked up): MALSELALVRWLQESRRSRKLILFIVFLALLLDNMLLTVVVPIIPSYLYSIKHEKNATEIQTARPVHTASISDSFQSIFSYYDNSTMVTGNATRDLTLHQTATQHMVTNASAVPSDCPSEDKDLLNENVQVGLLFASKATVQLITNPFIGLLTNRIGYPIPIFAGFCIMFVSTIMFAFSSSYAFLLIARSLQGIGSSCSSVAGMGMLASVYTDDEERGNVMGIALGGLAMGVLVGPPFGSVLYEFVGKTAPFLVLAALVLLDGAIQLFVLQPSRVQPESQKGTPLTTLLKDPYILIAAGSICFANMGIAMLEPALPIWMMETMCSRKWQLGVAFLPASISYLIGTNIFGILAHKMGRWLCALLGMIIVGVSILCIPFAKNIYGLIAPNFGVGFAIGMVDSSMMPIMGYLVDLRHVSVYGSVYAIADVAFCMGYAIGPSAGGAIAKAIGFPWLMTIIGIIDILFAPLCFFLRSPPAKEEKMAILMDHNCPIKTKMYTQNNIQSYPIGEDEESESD
Action: inhibitor
Notes: literature data
SMILES | IC50
COc1ccccc1OCC(O)CN1CCN(CC(=O)Nc2c(C)cccc2C)CC1 (stereo not shown) | > 10 µM
CC(C(O)c1ccc(O)cc1)N1CCC(Cc2ccccc2)CC1 (stereo not shown) | 0.312 µM
Cn1cnc2c(F)c(Nc3ccc(Br)cc3Cl)c(C(=O)NOCCO)cc21 | > 10 µM
CCn1c(=O)c2c(nc(/C=C/c3ccc(OC)c(OC)c3)n2C)n(CC)c1=O | > 10 µM
Cc1nccn1CC1CCc2c(c3ccccc3n2C)C1=O (stereo not shown) | > 10 µM
Cc1cc2c(s1)Nc1ccccc1N=C2N1CCN(C)CC1 | 98 µM
COc1c(N2C[C@@H]3CCCN[C@@H]3C2)c(F)cc2c(=O)c(C(=O)O)cn(C3CC3)c12 | > 10 µM
CC1=C(/C=C/C(C)=C/C=C/C(C)=C\C(=O)O)C(C)(C)CCC1 | > 10 µM
OC(c1cc(C(F)(F)F)nc2c(C(F)(F)F)cccc12)C1CCCCN1 (stereo not shown) | 1.66 µM
Cc1nc2n(c(=O)c1CCN1CCC(c3noc4cc(F)ccc34)CC1)CCCC2O (stereo not shown) | 1.27 µM
COc1cc2c(cc1OC)CC(=O)N(CCCN(C)C[C@H]1Cc3cc(OC)c(OC)cc31)CC2 | > 10 µM
CCc1nc(C(N)=O)c(Nc2ccc(N3CCC(N4CCN(C)CC4)CC3)c(OC)c2)nc1NC1CCOCC1 | 1.71 µM
CN1CCN(C2=Nc3ccccc3Oc3ccc(Cl)cc32)CC1 | 27.2 µM
O=C1[C@@H]2[C@H]3CC[C@H](C3)[C@@H]2C(=O)N1C[C@@H]1CCCC[C@H]1CN1CCN(c2nsc3ccccc23)CC1 | 0.304 µM
COc1ccc2[nH]c([S+]([O-])Cc3ncc(C)c(OC)c3C)nc2c1 (stereo not shown) | > 10 µM
COC(=O)[C@H]1[C@H]2C[C@@H]3c4[nH]c5cc(OC)ccc5c4CCN3C[C@H]2C[C@@H](OC(=O)/C=C/c2cc(OC)c(OC)c(OC)c2)[C@@H]1OC | 0.016 µM
Nc1nnc(-c2cccc(Cl)c2Cl)c(N)n1 | > 10 µM
NNC(=O)c1ccncc1 | > 10 µM

Study 3
Target: MAP kinase-interacting serine/threonine-protein kinase 1 (MKNK1, Homo sapiens, UniProt Q9BUB5)
Chain of UniProt Q9BUB5 (whole entry, looked up): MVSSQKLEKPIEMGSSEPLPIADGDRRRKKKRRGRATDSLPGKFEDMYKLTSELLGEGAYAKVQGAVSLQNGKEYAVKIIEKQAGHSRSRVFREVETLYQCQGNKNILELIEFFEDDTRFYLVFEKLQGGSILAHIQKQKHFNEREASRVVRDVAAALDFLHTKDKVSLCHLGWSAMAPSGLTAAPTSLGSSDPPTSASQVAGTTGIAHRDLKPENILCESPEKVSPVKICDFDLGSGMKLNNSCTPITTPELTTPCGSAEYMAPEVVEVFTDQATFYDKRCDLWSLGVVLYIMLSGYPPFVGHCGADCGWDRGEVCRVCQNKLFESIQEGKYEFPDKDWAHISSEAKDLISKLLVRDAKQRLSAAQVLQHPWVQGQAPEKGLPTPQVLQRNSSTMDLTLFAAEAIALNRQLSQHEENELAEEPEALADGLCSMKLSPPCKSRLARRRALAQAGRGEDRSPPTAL
Read-out: enzyme activity
Action: inhibitor
Concentration: 0.5 µM
Baseline: control
SMILES | remaining activity
O=C(Nc1ccc(Cl)cc1)c1ccccc1NCc1ccncc1 | 118%
COc1ccc(Cl)cc1NC(=O)Nc1cc(C)nc2ccccc12 | 101%
Cn1cc(/C=C2\C(=O)Nc3ccc(S(N)(=O)=O)cc32)c2ccccc21 | 74.1%
CS(=O)(=O)CCNCc1ccc(-c2ccc3ncnc(Nc4ccc(OCc5cccc(F)c5)c(Cl)c4)c3c2)o1 | 94.5%
Nc1[nH]nc2nnc(-c3c(-c4ccccc4)nn4ccccc34)cc12 | 98.5%
CC(C)[C@H](CO)Nc1nc(Nc2cccc(Cl)c2)c2ncn(C(C)C)c2n1 | 79.8%
COc1cc2ncnc(N3CCN(C(=O)Nc4ccc(Oc5ccccc5)cc4)CC3)c2cc1OC | 94.9%
Cc1ccc(NC(=O)c2ccc(CN3CCN(C)CC3)cc2)cc1Nc1nccc(-c2cccnc2)n1 | 94.6%
O=C1NC(=O)/C(=C/c2ccc3nccnc3c2)S1 | 96.5%
COc1cc2ncc(-c3ccccc3)nc2cc1OC | 104%
CCN1/C(=C/C(C)=O)Sc2ccc(OC)cc21 | 119%

Mixed results
SMILES | host | dose | notes | quantity | result
CC(C)n1cnc(-c2ccc(F)cc2)c1-c1ncc(C(=O)Nc2ccc(N3CCN(C)CC3)cc2)[nH]1 | human, idiopathic pulmonary fibrosis | 30 mg once daily | trial, treatment-emergent | patients with urinary tract infection | 0%

Some of these lines once more (study 1):
Structure (SMILES) | IC50 [µM]
CC(C)c1ccccc1Nc1nnc(-c2cc(-c3cccnc3)nc3ccccc23)s1 | ≥ 100
Cc1noc2c(-c3cnn(C)c3)cc(-c3cccc(C(F)(F)F)c3)nc12 | ≥ 100
O=C1OC2(c3ccc(O)cc3Oc3cc(O)ccc32)c2cccc(N=C=S)c21 | 12.6
Cn1cc(-c2cnc(NC(=O)Cc3ccc(F)cc3)c3c2CCO3)cn1 | ≥ 100
